Published values pooled from the literature.
Each line is one published result; not all experiments were run side by side. ± marks the error that the study gave.
Chymotrypsinogen A: Chymotrypsinogen A (Bos taurus, UniProt P00766)
UniProt P49137, sequence (whole entry, looked up): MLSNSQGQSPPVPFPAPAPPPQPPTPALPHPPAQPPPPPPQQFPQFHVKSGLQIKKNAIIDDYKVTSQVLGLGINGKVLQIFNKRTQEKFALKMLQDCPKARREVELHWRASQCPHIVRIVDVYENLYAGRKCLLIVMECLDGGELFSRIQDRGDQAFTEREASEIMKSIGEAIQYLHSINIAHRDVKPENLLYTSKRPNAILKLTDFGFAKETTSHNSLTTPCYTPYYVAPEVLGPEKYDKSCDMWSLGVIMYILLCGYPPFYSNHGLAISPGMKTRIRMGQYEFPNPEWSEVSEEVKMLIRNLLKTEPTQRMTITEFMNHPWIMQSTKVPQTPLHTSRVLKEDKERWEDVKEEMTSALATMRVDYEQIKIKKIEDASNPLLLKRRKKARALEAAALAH
UniProt Q99808, sequence (whole entry, looked up): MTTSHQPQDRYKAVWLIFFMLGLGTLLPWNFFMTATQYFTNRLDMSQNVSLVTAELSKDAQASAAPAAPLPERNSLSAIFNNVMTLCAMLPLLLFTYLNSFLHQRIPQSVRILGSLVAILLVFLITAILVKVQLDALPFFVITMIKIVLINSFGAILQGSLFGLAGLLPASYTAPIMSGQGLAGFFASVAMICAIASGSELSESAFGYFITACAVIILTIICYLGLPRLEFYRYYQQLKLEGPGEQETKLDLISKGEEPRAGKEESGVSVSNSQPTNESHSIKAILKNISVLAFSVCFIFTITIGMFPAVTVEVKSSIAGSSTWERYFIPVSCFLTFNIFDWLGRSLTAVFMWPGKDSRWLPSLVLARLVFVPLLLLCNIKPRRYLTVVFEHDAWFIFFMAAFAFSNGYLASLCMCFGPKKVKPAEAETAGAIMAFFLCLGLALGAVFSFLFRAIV
UniProt A6QGU8, sequence (whole entry, looked up): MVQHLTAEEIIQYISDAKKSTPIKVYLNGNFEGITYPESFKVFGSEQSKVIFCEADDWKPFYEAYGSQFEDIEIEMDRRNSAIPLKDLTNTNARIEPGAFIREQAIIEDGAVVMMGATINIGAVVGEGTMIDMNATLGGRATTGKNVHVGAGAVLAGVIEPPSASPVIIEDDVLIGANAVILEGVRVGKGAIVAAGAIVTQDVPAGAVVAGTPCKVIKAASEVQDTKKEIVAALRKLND
UniProt O43148, sequence (whole entry, looked up): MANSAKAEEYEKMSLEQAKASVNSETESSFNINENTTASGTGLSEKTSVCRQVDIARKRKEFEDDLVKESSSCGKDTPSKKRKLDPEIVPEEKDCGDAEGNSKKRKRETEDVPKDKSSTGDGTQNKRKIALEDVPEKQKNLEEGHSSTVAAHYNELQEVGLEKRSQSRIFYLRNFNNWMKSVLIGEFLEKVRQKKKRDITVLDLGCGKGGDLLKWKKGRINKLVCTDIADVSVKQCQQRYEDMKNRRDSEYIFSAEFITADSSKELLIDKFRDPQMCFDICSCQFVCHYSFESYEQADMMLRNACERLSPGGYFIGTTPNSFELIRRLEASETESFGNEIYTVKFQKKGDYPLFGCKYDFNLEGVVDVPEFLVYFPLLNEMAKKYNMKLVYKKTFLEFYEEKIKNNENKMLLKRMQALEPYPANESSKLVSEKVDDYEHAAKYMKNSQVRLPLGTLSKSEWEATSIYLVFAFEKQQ
UniProt Q92769, sequence (whole entry, looked up): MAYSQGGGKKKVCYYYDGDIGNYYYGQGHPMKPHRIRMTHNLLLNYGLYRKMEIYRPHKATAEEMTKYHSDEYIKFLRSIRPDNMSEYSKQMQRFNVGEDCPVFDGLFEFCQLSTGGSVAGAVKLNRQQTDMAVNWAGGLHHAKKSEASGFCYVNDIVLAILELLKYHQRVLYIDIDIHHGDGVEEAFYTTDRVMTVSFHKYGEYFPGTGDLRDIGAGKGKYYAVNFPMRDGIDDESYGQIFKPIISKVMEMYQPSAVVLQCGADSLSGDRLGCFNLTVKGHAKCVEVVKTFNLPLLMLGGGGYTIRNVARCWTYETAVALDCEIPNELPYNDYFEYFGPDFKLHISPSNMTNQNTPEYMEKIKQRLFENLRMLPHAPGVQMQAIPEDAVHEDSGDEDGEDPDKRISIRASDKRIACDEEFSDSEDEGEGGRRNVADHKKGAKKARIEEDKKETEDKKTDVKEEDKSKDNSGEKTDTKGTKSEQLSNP
UniProt P03303, sequence (whole entry, looked up): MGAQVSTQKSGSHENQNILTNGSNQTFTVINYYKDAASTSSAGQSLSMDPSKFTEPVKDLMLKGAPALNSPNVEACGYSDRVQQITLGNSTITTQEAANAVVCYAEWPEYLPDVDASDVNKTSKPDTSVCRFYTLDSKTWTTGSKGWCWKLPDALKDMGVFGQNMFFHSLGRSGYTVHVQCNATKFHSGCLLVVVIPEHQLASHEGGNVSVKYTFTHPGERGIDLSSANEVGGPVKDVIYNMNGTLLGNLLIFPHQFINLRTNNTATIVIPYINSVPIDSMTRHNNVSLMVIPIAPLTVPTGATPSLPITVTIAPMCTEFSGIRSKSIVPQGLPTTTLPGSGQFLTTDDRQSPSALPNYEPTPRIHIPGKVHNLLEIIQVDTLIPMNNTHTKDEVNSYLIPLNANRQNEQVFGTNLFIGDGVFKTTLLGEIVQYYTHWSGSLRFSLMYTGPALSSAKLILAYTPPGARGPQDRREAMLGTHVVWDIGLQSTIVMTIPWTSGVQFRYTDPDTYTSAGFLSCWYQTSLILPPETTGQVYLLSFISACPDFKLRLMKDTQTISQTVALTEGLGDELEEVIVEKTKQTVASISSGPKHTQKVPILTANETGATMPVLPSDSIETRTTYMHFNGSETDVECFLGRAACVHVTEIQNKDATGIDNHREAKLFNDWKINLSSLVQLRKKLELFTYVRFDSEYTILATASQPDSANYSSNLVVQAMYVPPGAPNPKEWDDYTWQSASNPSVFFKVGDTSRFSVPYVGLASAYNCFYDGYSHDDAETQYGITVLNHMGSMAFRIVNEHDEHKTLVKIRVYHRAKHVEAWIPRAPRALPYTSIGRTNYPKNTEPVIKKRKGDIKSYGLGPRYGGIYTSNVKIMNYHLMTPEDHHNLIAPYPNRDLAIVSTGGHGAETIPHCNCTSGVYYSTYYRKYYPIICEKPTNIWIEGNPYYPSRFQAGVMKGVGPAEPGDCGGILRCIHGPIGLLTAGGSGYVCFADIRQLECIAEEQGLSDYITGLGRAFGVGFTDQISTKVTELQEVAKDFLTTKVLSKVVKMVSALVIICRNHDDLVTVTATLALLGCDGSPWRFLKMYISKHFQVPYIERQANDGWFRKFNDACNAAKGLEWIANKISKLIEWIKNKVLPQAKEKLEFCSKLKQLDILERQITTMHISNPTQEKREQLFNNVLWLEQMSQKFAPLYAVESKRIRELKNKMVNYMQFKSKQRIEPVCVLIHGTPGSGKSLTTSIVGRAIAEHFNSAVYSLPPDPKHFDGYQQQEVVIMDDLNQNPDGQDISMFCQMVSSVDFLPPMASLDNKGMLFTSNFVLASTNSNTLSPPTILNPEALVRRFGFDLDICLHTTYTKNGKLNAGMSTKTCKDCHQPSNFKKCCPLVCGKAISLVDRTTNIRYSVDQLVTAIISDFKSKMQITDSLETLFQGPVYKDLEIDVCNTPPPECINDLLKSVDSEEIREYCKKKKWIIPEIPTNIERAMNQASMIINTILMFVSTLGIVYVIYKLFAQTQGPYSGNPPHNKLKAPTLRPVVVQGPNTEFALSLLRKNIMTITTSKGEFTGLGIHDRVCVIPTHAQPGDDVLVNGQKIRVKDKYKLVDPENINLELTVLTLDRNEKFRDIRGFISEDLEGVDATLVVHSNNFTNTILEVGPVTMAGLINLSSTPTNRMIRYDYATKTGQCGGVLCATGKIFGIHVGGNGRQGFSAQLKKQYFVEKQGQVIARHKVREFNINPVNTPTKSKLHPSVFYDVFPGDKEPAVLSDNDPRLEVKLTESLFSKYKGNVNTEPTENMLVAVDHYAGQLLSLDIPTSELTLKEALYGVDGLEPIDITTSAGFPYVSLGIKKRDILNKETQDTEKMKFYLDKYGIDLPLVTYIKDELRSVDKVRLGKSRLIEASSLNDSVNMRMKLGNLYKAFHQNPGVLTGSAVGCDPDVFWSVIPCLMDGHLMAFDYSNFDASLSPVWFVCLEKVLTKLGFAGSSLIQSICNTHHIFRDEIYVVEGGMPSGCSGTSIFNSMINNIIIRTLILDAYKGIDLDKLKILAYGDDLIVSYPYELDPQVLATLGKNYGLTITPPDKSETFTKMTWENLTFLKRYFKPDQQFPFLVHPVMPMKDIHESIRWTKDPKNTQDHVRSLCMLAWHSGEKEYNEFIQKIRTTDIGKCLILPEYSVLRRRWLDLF
UniProt P62942, sequence (whole entry, looked up): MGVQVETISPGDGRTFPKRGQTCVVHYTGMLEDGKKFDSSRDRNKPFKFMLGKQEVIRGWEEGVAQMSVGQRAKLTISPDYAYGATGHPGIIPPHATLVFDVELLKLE
UniProt P15309, sequence (whole entry, looked up): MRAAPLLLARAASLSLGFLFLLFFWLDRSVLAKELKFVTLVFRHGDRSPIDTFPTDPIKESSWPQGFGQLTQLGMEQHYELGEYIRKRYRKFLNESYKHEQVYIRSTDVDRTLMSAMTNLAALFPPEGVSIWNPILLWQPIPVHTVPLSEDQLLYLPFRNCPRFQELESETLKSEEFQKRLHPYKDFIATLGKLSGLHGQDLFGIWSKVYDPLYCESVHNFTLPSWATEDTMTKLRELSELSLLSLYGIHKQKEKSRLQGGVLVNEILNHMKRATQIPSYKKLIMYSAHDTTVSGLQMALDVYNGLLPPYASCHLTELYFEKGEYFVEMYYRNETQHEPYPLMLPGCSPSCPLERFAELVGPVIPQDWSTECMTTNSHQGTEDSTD

Structure (SMILES)	target	assay	system	conditions	IC50 [µM]
Nc1ccccc1C(=O)OCN1C(=O)c2ccccc2S1(=O)=O	Chymotrypsinogen A	enzyme activity, inhibitor	–	25 °C, 30 min preincubation, with: Suc-AAPF-pNA	54
CCn1c(-c2ccc(OC)cc2)c(-c2ccc(OC)cc2)n(CC)c1=[Se+][Au-][P+](CC)(CC)CC.Cl	thioredoxin reductase (Acinetobacter baumannii, UniProt A0A0G4QN87)	enzyme activity, inhibitor	–	with: DTNB	4.75
O=C(CCCCCCC(=O)Nc1ccccc1N=Nc1ccccc1)NO	HDAC2 (Homo sapiens, UniProt Q92769)	enzyme activity, inhibitor	–	trans isomer	0.043 ± 0.01
O=C(C[P+]([Au-][Cl])(c1ccccc1)c1ccccc1)[O][Ti+2][O]C(=O)C[P+]([Au-][Cl])(c1ccccc1)c1ccccc1.c1cc[cH-]c1.c1cc[cH-]c1	MAPKAPK2 (Homo sapiens, UniProt P49137)	enzyme activity, inhibitor, radiometric	–	–	0.712
CC(C)[C@H](NC(=O)c1ccc(CNc2nc3c(c(=O)[nH]2)CCC3)cc1)C(=O)NC1COC1	MMP14 (Homo sapiens, UniProt P50281)	enzyme activity, inhibitor	–	–	> 5
Cc1cc(C)nc(Sc2nc3sccn3c2[N+](=O)[O-])n1	Genome polyprotein, 3C protease (rhinovirus B14, UniProt P03303)	3C protease activity, SAMDI-MS	human rhinovirus	–	4.94
COc1ccc(CC[C@H]2OC(=O)[C@@H]3CCCCN3C(=O)C(=O)C(C)(C)COC(=O)/C=C/CCN(C)C(=O)[C@H](CC(C)C)N(C)C(=O)[C@H]3CCCN3C(=O)[C@H](Cc3ccccc3)N(C)C(=O)[C@@H](c3ccccc3)NC(=O)CCC(=O)Nc3cccc2c3)cc1OC	FKBP1A/SLC29A1 (Homo sapiens, UniProt P62942+Q99808)	thymidine uptake, inhibitor	PK-15 expressing hENT1	30 min, with: [3H]-thymidine	0.589
C=Cc1cc(OC)c2c(c1)c(=O)oc1c2cc(OC)c2c(O)ccc([C@@H]3O[C@H](C)[C@H](O)[C@@](C)(O)[C@H]3O)c21	2,3,4,5-tetrahydropyridine-2,6-dicarboxylate N-acetyltransferase (dapH, Staphylococcus aureus, UniProt A6QGU8)	enzyme activity, inhibitor, DTNB colorimetric	–	with: acetyl-CoA 200 µM	4.03 ± 0.92
CC(=O)[C@H]1CC[C@H]2[C@@H]3CC=C4C[C@@H](OS(=O)(=O)O)CC[C@]4(C)[C@H]3CC[C@]12C	TRPC5 (Homo sapiens, UniProt Q9UL62)	ion current, patch clamp	–	–	19
O=C(O)c1cccc(Nc2nc(-c3cccnc3)nc3ccccc23)c1	ACP3 (Homo sapiens, UniProt P15309)	enzyme activity, inhibitor	–	–	8
O=C(Oc1cncc(Cl)c1)c1cccs1	Chymotrypsinogen A	enzyme activity, inhibitor	–	–	13
O=C(O[C@@H]1Cc2c(O)cc(O)cc2O[C@H]1c1cc(O)c(O)c(O)c1)c1cc(O)c(O)c(O)c1	mRNA cap guanine-N(7) methyltransferase, with RAM (RNMT, Homo sapiens, UniProt O43148)	N7-methyltransferase activity, inhibitor, Py-FLINT	–	RNMT-RAM complex, with: SAM 20 µM	2.74 ± 0.54
C=C(C)[C@]12C[C@@H](C)[C@@]34O[C@](Cc5ccccc5)(O[C@@H]1[C@@H]3C=C(COC(=O)Cc1cc(I)c(O)c(OC)c1)C[C@]1(O)C(=O)C(C)=C[C@@H]41)O2	TRPV1 (Homo sapiens, UniProt Q8NER1)	calcium signal, antagonist, fluorescence	–	–	0.274
CC[C@H](C)[C@@H]1NC(=O)[C@H](Cc2ccccc2)NC(=O)[C@H](CC(=O)O)NC(=O)[C@@H](NC(C)=O)CSC(=O)[C@H](CCSC)NC1=O	accessory gene regulator protein C (Staphylococcus aureus, UniProt O33587)	–	–	–	0.00942
